Measured values gathered from unrelated publications.
Numbers after ± are the reported error.
HCRTR1: Orexin/Hypocretin receptor type 1 (HCRTR1, Homo sapiens, UniProt O43613)
Chain of UniProt O43613 (whole entry, looked up): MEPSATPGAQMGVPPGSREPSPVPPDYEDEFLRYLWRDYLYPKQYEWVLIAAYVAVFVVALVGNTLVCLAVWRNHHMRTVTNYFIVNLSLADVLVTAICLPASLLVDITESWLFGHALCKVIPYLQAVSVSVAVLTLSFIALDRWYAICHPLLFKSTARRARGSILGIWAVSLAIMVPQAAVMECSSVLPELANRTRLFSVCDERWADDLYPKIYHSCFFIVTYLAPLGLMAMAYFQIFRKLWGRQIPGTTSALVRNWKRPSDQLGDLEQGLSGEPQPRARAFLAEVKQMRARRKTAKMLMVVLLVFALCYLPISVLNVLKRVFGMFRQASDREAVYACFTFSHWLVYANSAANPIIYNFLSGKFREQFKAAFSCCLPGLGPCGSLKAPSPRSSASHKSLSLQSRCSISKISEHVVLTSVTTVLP

| SMILES | target or system | assay | test system | conditions | endpoint | result |
| --- | --- | --- | --- | --- | --- | --- |
| CCCCCCOc1ccc(CC2c3cc(OC)c(OC)cc3CCN2CC(=O)NCc2ccccc2)cc1OC (stereo not drawn) | HCRTR1 | calcium signal, antagonist, fluorescence | – | – | Kb | 120 nM |
| Cc1c2c(n(-c3ccc(Cl)cc3Cl)c1-c1ccc(OS(=O)(=O)CCC(F)(F)F)cc1)CCN(N1CCCCC1)C2=O | – | – | cynomolgus monkey 4, plasma | intravenous infusion, 0.2 mg/kg, 90 min, PET study midpoint | plasma concentration | 57 nM |
| COc1cc2c(cc1OC)C(Cc1ccc(OS(C)(=O)=O)c(OC)c1)N(CC(=O)NCc1ccccc1)CC2 (stereo not drawn) | HCRTR1 | calcium signal, antagonist, fluorescence | – | – | Kb | 480 nM |
| Cc1c(C(=O)NN2CCCCC2)nn(-c2ccc(Cl)cc2Cl)c1-c1ccc(Cl)cc1 | – | LC-MS/MS | cynomolgus monkey 2, plasma | intravenous infusion, 0.2 mg/kg, 90 min, total concentration mid-point of PET | plasma concentration | 78 nM |
| Cn1cc(-c2ccncc2)c(-c2ccc(OCc3ccc4ccccc4n3)cc2)n1 | – | – | rhesus monkey, plasma | subcutaneous, 0.67 mg/kg, 1 h | plasma concentration | 136 ng/mL |
| Cc1c(C)n(Cc2cccc(OC(C)(C)C(=O)O)c2)c2ccc(C(=O)N[C@@H](C)c3ccc(C(C)(C)C)cc3)cc12 | – | – | C57BL/6 mice, diet-induced obese, high-fat diet, plasma | oral, 22.1 mg/kg/day, 4 weeks, together with: rosiglitazone 24.2 mg/kg/day | plasma concentration | 14200 nM |
| Cc1c(C(=O)NN2CCCCC2)nc(-c2ccc(Cl)cc2Cl)n1-c1ccc(OS(=O)(=O)CCC(F)(F)F)cc1 | – | LC-MS/MS | cynomolgus monkey 2 | intravenous infusion, 1.0 mg/kg, 90 min, total, PET mid-point | plasma concentration | 154 nM |
| S=C(NCCCc1c[nH]cn1)NCCCN(Cc1ccc(Cl)c(Cl)c1)c1ccc(Br)cn1 | – | – | male C57BL/6 mice, plasma | intraperitoneal, 30 mg/kg, 1 h | plasma concentration | 3740 ng/mL |
| CCCC[C@H](NC(C)=O)C(=O)N[C@H]1CCC(=O)NC[C@@H](C(=O)N[C@@H](Cc2c[nH]c3ccccc23)C(N)=O)NC(=O)[C@H](CCCNC(=N)N)NC(=O)[C@@H](Cc2ccccc2)NC(=O)[C@H](Cc2c[nH]cn2)NC1=O | – | – | CD Sprague-Dawley rat, male, plasma | subcutaneous, 5.0 mg/kg/day, day 1 | AUC(0-t) | 4300 ng·h/mL |
| CSc1cc(Oc2ccnc3[nH]c(=O)cnc23)ccc1NC(=O)Nc1cc(C(C)(C)C)nn1-c1ccccc1 | – | – | female NSG and nude mice, plasma | oral, 20 mg/kg/day, 1 h, end of therapy | plasma concentration | ~50000 nM |
| COc1ccc2c(c1)CN(Cc1ccc(C(=O)O)cc1)CCS2 | – | – | mdx mice, plasma | oral, drinking water, 50 mg/kg, 12 wk treatment, 2 h after water withdrawal | plasma concentration | 5890 ng/mL |
| C[C@H](Oc1ccc(-c2nc(-c3ccc4[nH]cnc4c3)no2)cc1C(F)(F)F)C(F)(F)F | – | – | cynomolgus monkey, aneurysm model, plasma | 0.1 mg/kg once daily, 2 h post-dose, 2 weeks dosing | plasma concentration | 15 ± 3.9 nM |

Some of these lines once more:
| SMILES | target or system | assay | test system | conditions | endpoint | result |
| --- | --- | --- | --- | --- | --- | --- |
| COc1ccc2c(c1)CN(Cc1ccc(C(=O)O)cc1)CCS2 | – | – | mdx mice, plasma | oral, drinking water, 50 mg/kg, 12 wk treatment, 2 h after water withdrawal | plasma concentration | 5890 ng/mL |
